# Measurements gathered from unrelated publications.
# Each line is one published result; not all experiments were run side by side. ± gives the spread as reported.
Compound,target or system,assay,setting,scale,endpoint,value
COc1ncccc1CN(C(=O)OC(c1ccc([N+](=O)[O-])cc1)C(F)(F)F)[C@H]1C[C@@H]1c1ccccc1 (mixture of isomers),THP-1 cells expressing NTR,MTS,72 h,,GI50,> 50 µM
Nc1ncc(-c2cc(-c3cnn(CC(F)(F)F)c3)ncc2F)nc1C(=O)NC1CNCC(F)C1 (stereo not shown),ADCK3,KINOMEscan,1 µM,reference: DMSO control,remaining binding,61%
O=C(C[Se]C(=O)c1cc2ccccc2o1)Nc1cccc(C(F)(F)F)c1,NCI60 colon subpanel,NCI60 five-dose screen,,,GI50,2.62 µM
CNS(=O)(=O)Nc1nccc(Cc2c(C)c3ccc(Oc4ncccc4F)cc3oc2=O)c1F,JM1,cell viability,7 days,,IC50,> 1 µM
C=CC(=O)N1CCC[C@@H](n2nc(-c3ccc(Oc4ccccc4)cc3)c3c(N)ncnc32)C1,TMD8,"cell growth or viability, WST-1",72 h,,GI50,0.0029 µM
O=C(C[Se]C(=O)c1cc2ccccc2s1)Nc1cccc(C(F)(F)F)c1,NCI60 colon subpanel,NCI60 five-dose screen,,,GI50,2.37 µM
COc1ncccc1CN(C(=O)OCc1ccc([N+](=O)[O-])cc1F)[C@H]1[C@@H](C)[C@@H]1c1ccccc1 (racemic),THP-1 cells expressing NTR,MTS,72 h,,GI50,4.2 ± 0.5 µM
COC1CN([C@H]2CC[C@H]([C@@]3(C)Oc4c(Cl)cc(C(=O)NCc5c(SC)cc(C)[nH]c5=O)c(C)c4O3)CC2)C1,T24,"cell growth or viability, ATP luminescence",6 days,,GI50,> 10 µM
CC(=O)Oc1ccccc1C(=O)[Se]CC(=O)Nc1cccc(C(F)(F)F)c1,NCI60 colon subpanel,NCI60 five-dose screen,,,GI50,4.34 µM
C=CC(=O)Nc1cccc(Cn2ncc3cnc(Nc4cnn(CCOC)c4)nc32)c1,EPHB1 human,"binding, KINOMEscan",100 nM,lower = stronger binding,percent of control,86%
CCN(C(=O)c1cc(F)ccc1Oc1nncnc1N1CCC2(C1)CN([C@H](CCCN(C)CCOC)C(C)C)C2)C(C)C,Calu-6,cell growth or viability,7 days,,GI50,> 10 µM
COc1ncccc1CN(C(=O)OCc1ccc([N+](=O)[O-])cc1)[C@H]1C[C@@H]1c1ccccc1 (racemic),THP-1 cells expressing NTR,MTS,72 h,,GI50,> 50 µM
Cc1ncsc1-c1ccc(C(C)NC(=O)C2CC(O)CN2C(=O)C(NC(=O)CCCCCCCCCCN2CCCC(Nc3ncc(Cl)c(Nc4ccccc4S(=O)(=O)C(C)C)n3)C2)C(C)(C)C)cc1 (stereo not shown),22Rv1,"RNA-seq, measured: NAIF1 mRNA",concentration not given,reference: DMSO,log2 fold change,-1.69

# Repeated from above:
Compound,target or system,assay,setting,scale,endpoint,value
C=CC(=O)N1CCC[C@@H](n2nc(-c3ccc(Oc4ccccc4)cc3)c3c(N)ncnc32)C1,TMD8,"cell growth or viability, WST-1",72 h,,GI50,0.0029 µM
COc1ncccc1CN(C(=O)OCc1ccc([N+](=O)[O-])cc1F)[C@H]1[C@@H](C)[C@@H]1c1ccccc1 (racemic),THP-1 cells expressing NTR,MTS,72 h,,GI50,4.2 ± 0.5 µM
